Measurements collected from several papers.
Each line is one published result; not all experiments were run side by side. Several values in a cell are separate wells, animals, samples, runs or records. ± marks the error that the study gave.
STING1 H232R: Stimulator of interferon genes protein (STING1, Homo sapiens, UniProt Q86WV6, H232R)
MAPK8: Mitogen-activated protein kinase 8 (MAPK8, Homo sapiens, UniProt P45983)

| Structure (SMILES) | target | assay | test system | conditions | scale | measurement | result |
| --- | --- | --- | --- | --- | --- | --- | --- |
| CC(C)Oc1cc(Cl)ccc1CNc1cc(-c2ccccc2)nc2ncnn12 | G-protein coupled receptor 3 (GPR3, Homo sapiens, UniProt P46089, I200W) | cAMP GloSensor | human cells | 3 µM | higher is more cAMP | cAMP luminescence | 27200 a.u. and 33800 a.u. and 29800 a.u. and 23500 a.u. |
| Cc1cc(C(=O)Nc2nc3cccc(C)c3n2[C@H]2CCCCN(C(=O)/C=C/CN(C)C)C2)ccn1 | CDC2-like kinase 1 (Trypanosoma brucei brucei, UniProt Q382U0) | ADP-Glo | – | 0.07812 µM | – | kinase activity | 71.8% |
| CC(C)C[C@@H]1NC(=O)[C@H](Cc2ccccc2)NC(=O)CSC[C@@H](C(=O)NCC(N)=O)NC(=O)[C@H](Cc2ccc(O)cc2)NC(=O)[C@H](C(C)C)NC(=O)[C@H](Cc2ccccc2)NC(=O)[C@H](Cc2ccc(O)cc2)NC(=O)[C@H](Cc2ccccc2)NC(=O)[C@H](CC(=O)O)NC(=O)[C@H](CC(N)=O)NC(=O)[C@H](CC(N)=O)NC(=O)[C@H](Cc2ccc(O)cc2)NC(=O)[C@H](C(C)C)NC(=O)[C@H](Cc2ccccc2)NC1=O | STING1 H232R | thermal stability, DSF | – | 50 µM | – | ΔTm | 0.56 °C |
| CN(Cc1cc(C2CC2)on1)C(=O)c1cccc(-c2ccc3c(c2)CCO3)c1 | acetoacetyl-CoA synthetase (Cryptococcus neoformans) | enzyme activity, inhibitor | – | 977 nM | – | remaining activity | 102% |
| CC(C)(C)OC(=O)C1=C[C@@](C)(C(=O)OCC#Cc2ccncc2)CCC1=O | MAPK8 | D-peptide binding, inhibitor, FP peptide displacement | – | 200 µM | lower is stronger displacement | fraction bound | 0.117 |
| Fc1ccc(Nc2nc(NC3CCCCC3)c3cc(Br)ccc3n2)cc1F | Beta-2 adrenergic receptor (ADRB2, Homo sapiens, UniProt P07550, Q170L) | β-arrestin2 recruitment, antagonist, BRET | – | mutant Q170L | reference: isoprenaline maximal response | maximal inhibition | -2.1% |
| Cc1ccc(-c2c(/C=C(\C#N)C(=O)NC(C)C)n(CCCO)c3ncnc(N)c23)cc1 | Tyrosine-protein kinase ABL1, non-phosphorylated (ABL1, Homo sapiens, UniProt P00519, H396P) | cell-free assay, competition with immobilised ligand | – | 1 µM | – | remaining binding | 100% |
| CCCCCCCCCCCCC/C=C/C=O | Myosin regulatory light chain 12B (MYL12B, Homo sapiens, UniProt O14950) | competitive isoTOP-ABPP, measured: MRLC2 cysteine peptide | Ramos soluble proteome | 100 µM, with: iodoacetamide probe | reference: DMSO over compound-treated, higher = stronger cysteine blockade | isoTOP-ABPP competition ratio | 1 |
| O=C1C[C@H](c2nc(-c3ccc(F)c4cn[nH]c34)no2)CCCN1c1ccc(F)cc1 (racemic) | Cannabinoid receptor 2 (CNR2, Homo sapiens, UniProt P34972, F94A) | cAMP, agonist, luciferase | – | – | – | Emax | 91.5% |
| CCOC(=O)C(CC)(CCCSCCOCCN)NC(=O)c1ccc(C2CC2)c(Cc2ccc(F)cc2)n1 (centres unmarked) | Cannabinoid receptor 2 (Cnr2, Mus musculus, UniProt P47936) | cAMP, agonist | – | – | – | Emax | 92% |
| O=C(c1ccc([N+](=O)[O-])cc1)N1CCN(CC(OCc2ccc3ccccc3c2)c2ccc(Cl)cc2Cl)CC1 (centres unmarked) | Serine/threonine-protein kinase ULK1 (ULK1, Homo sapiens, UniProt O75385) | enzyme activity, inhibitor, ADP detection | – | 0.1 µM | – | activity vs control | 114% |
| COC(=O)C1(C)C=C(C(=O)OC(C)(C)C)C(=O)CC1 (centres unmarked) | MAPK8 | D-peptide binding, inhibitor, FP peptide displacement | – | 1000 µM | lower is stronger displacement | fraction bound | 0.0913 |
| O=C1N(c2cccc(CN3CCN(Cc4ccc(Br)cc4)CC3)c2)C(=O)C12CCCCC2 | Dipeptidyl peptidase 8 (Homo sapiens, UniProt Q6V1X1) | inhibitor | – | with: GP-AMC substrate | reference: Ki' DPP9 over Ki' DPP8 | selectivity ratio | 3 |
| O=C(CCN(Cc1cccc(C(=O)O)c1)Cc1cccc(C(=O)O)c1)NO | Astacin-like metalloendopeptidase (Astl, Mus musculus, UniProt Q6HA09) | enzyme activity, inhibitor, fluorogenic | – | 0.25 µM | – | remaining activity | 86 ± 4% |
| Cc1ncsc1-c1ccc(CNC(=O)[C@@H]2C[C@@H](O)CN2C(=O)[C@@H](NC(=O)COCC(C)(COCCOCCOCCNC(=O)C[C@@H]2N=C(c3ccc(Cl)cc3)c3c(sc(C)c3C)-n3c(C)nnc32)COCCOCCOCCNC(=O)C[C@@H]2N=C(c3ccc(Cl)cc3)c3c(sc(C)c3C)-n3c(C)nnc32)C(C)(C)C)cc1 | von Hippel-Lindau disease tumor suppressor, with Elongin B/C (VHL, Homo sapiens, UniProt P40337) | binding, SPR multi-cycle kinetics | – | binary complex VCB | – | % Rmax | 52 ± 3% |
| CN(C(=O)OCc1cc(C(=O)O)cc(F)c1OP(=O)(O)O)C(=O)c1ccc(N2C(=S)N(c3ccc(C#N)c(C(F)(F)F)c3)C(=O)C2(C)C)cc1F | Alkaline phosphatase, placental type (Homo sapiens, UniProt P05187) | substrate | – | 100 µM, pH 7.6, 37 °C | – | drug formation rate | 3.43 pmol/min |
| C#CCOC(=O)[C@@]1(C)C=C(C(=O)OC(C)(C)C)C(=O)CC1 | MAPK8 | enzyme activity, D-SENSOR | – | 0.06097 µM, mean of replicates | – | normalized kinase activity | 0.984 |
| CC(C)C[C@@H]1NC(=O)[C@H](Cc2ccccc2)NC(=O)CSC[C@@H](C(=O)NCC(N)=O)NC(=O)[C@H](C(C)C)NC(=O)[C@H](Cc2ccccc2)NC(=O)[C@H](Cc2ccc(O)cc2)NC(=O)[C@H](C(C)C)NC(=O)[C@H](CC(=O)O)NC(=O)[C@H](Cc2ccccc2)NC(=O)[C@H](CCCNC(=N)N)NC(=O)[C@H](Cc2ccccc2)N(C)C(=O)[C@H](C)NC(=O)[C@H](Cc2ccccc2)NC(=O)[C@H](C(C)C)NC1=O | STING1 H232R | thermal stability, DSF | – | 200 µM | – | ΔTm | -0.16 °C |
| CC(=O)N1c2ccc(-c3ccc(CNC(=O)c4cn5cc(-c6cnc(N)nc6)nc(N6CCOCC6)c5n4)cc3)cc2CC[C@@H]1C | Bromodomain-containing protein 2, BD2 (BRD2, Homo sapiens, UniProt P25440) | binding, competition with immobilised ligand | – | 10 µM | – | remaining binding | 0.1% |
| O=P(O)(O)O[C@H]1[C@H](OP(=O)(O)O)[C@@H](OP(=O)(O)O)[C@@H](O)[C@@H](O)[C@@H]1OP(=O)(O)O | Inositol-tetrakisphosphate 1-kinase (Homo sapiens, UniProt Q13572) | enzyme activity, substrate, ADP detection | – | – | – | Km | 0.38 µM |
| Cc1cn(CC(=O)N(CC(=O)N[C@H]2CCC[C@@H]2N(CC(=O)N[C@H]2COC[C@@H]2N(CC(=O)N[C@H]2COC[C@@H]2N(CC(=O)N[C@H]2COC[C@@H]2N(CC(=O)NCCOCCOCC(N)=O)C(=O)Cn2cnc3c(N)ncnc32)C(=O)Cn2cc(C)c(=O)[nH]c2=O)C(=O)Cn2cnc3c(N)ncnc32)C(=O)Cn2cnc3c(=O)[nH]c(N)nc32)[C@H]2CCC[C@@H]2NC(=O)CN(C(=O)Cn2cnc3c(=O)[nH]c(N)nc32)[C@H]2CCC[C@@H]2NC(=O)CN(C(=O)Cn2cc(C)c(=O)[nH]c2=O)[C@H]2COC[C@@H]2NC(=O)CN(C(=O)Cn2cnc3c(N)ncnc32)[C@H]2COC[C@@H]2NC(=O)CN(C(=O)Cn2cnc3c(=O)[nH]c(N)nc32)[C@H]2COC[C@@H]2N)c(=O)[nH]c1=O | complementary RNA | duplex formation, UV melting curve fit | PBS | 1 µM, 298 K | – | ΔG | -19.1 ± 0.3 kcal/mol |
| CC(/C=C/C(=O)NO)=C\[C@@H](C)C(=O)c1ccc(N(C)C)cc1 | Histone deacetylase 8 (HDAC8, Homo sapiens, UniProt Q9BY41) | ITC | phosphate buffer | pH 7.5 | – | TΔS | 7 kcal/mol |
| N=C(N)NCCC[C@H](NC(=O)[C@@H]1CCCN1C(=O)[C@H](CCCNC(=N)N)NC(=O)[C@@H]1CCCN1C(=O)[C@H](CCCNC(=N)N)NC(=O)[C@@H]1CCCN1C(=O)[C@H](CCCNC(=N)N)NC(=O)[C@@H]1CCCN1C(=O)[C@H](CCCNC(=N)N)NC(=O)[C@@H]1CCCN1C(=O)[C@H](CCCNC(=N)N)NC(=O)[C@@H]1CCCN1C(=O)[C@H](CCCNC(=N)N)NC(=O)[C@@H]1CCCN1C(=O)[C@H](CCCNC(=N)N)NC(=O)[C@@H]1CCCN1C(=O)[C@H](CCCNC(=N)N)NC(=O)[C@@H]1CCCN1C(=O)[C@H](CCCNC(=N)N)NC(=O)[C@@H]1CCCN1C(=O)[C@H](CCCNC(=N)N)NC(=O)[C@@H]1CCCN1C(=O)[C@H](CCCNC(=N)N)NC(=O)[C@@H]1CCCN1C(=O)[C@H](CCCNC(=N)N)NC(=O)[C@@H]1CCCN1C(=O)[C@H](CCCNC(=N)N)NC(=O)[C@@H]1CCCN1C(=O)[C@H](CCCNC(=N)N)NC(=O)[C@@H]1CCCN1C(=O)[C@H](CCCNC(=N)N)NC(=O)[C@@H]1CCCN1C(=O)[C@H](CCCNC(=N)N)NC(=O)[C@@H]1CCCN1C(=O)[C@H](CCCNC(=N)N)NC(=O)[C@@H]1CCCN1C(=O)[C@H](CCCNC(=N)N)NC(=O)[C@@H]1CCCN1C(=O)[C@H](CCCNC(=N)N)NC(=O)[C@@H]1CCCN1C(=O)[C@H](CCCNC(=N)N)NC(=O)[C@@H]1CCCN1C(=O)[C@H](CCCNC(=N)N)NC(=O)[C@@H]1CCCN1C(=O)[C@H](CCCNC(=N)N)NC(=O)[C@@H]1CCCN1C(=O)[C@H](Cc1ccc(O)cc1)NC(=O)[C@H](CO)NC(=O)CN)C(=O)O | Nucleophosmin (NPM1, Homo sapiens, UniProt P06748) | SANS Guinier analysis | – | 0.5 molar excess over NPM1, 25 °C | – | radius of gyration | 68.3 ± 3.55 Å |
| O=c1c2sccc2n(CC2COc3ccccc3O2)c(=O)n1O (centres unmarked) | Flap endonuclease 1 (Homo sapiens, UniProt P39748) | binding, Mg2+ complex, surface plasmon resonance | – | pH 7.4, with: 50 mM MgCl2 | – | koff | 0.00554 s⁻¹ |
| CC1(F)CN(C(=O)Cn2c(=O)c(C(=O)NCc3ccc(Cl)cc3)cc3nc(N4CCN(CCN)C4=O)cnc32)C1 | DNA polymerase catalytic subunit (Human cytomegalovirus, UniProt P08546) | enzyme activity, inhibitor | – | – | – | Hill slope | 0.74 |
| CCCCCC(O)/C=C/C=O (centres unmarked) | TBC1 domain family member 13 (TBC1D13, Homo sapiens, UniProt Q9NVG8) | competitive isoTOP-ABPP | proteome, soluble, MDA-MB-231 | 100 µM, 60 min, with: iodoacetamide probe | reference: DMSO over compound-treated, higher = stronger cysteine blockade | isoTOP-ABPP competition ratio | 1.2 |
